Results gathered from unrelated publications.
Each line is one published result; not all experiments were run side by side. Numbers after ± are the reported error. Converted amounts (≈) assume the structure as drawn.

Substance | test | system | setting | how to read | measurement | value
COc1ccc(-c2cc(=O)c3c(OC)c(OC)c(OC)c(OC)c3o2)cc1OC | – | C57BL/6 mouse, male, small intestine | oral, 1% w/w in diet, 6 weeks, orange peel extract diet | reference: content in orange peel | tissue to peel content ratio | 2.65%
CC[C@H](C)[C@H](NC(=O)[C@H](C)NC(=O)[C@H](CCCCN)NC(=O)[C@H](CC(C)C)NC(=O)[C@H](C)NC(=O)[C@@H](NC(=O)[C@H](Cc1c[nH]cn1)NC(=O)[C@H](CC(C)C)NC(=O)[C@@H](NC(=O)[C@@H](NC(=O)[C@H](CCCCN)NC(=O)[C@H](CCCCN)NC(=O)[C@H](C)NC(=O)[C@H](CO)NC(=O)[C@H](CCCCN)NC(=O)[C@H](Cc1ccccc1)NC(=O)[C@@H](NC(=O)[C@H](CCCCN)NC(=O)[C@H](CC(C)C)NC(=O)[C@H](Cc1ccccc1)NC(=O)[C@H](CO)NC(=O)[C@H](CCCCN)NC(=O)[C@H](Cc1c[nH]c2ccccc12)NC(=O)[C@H](CCCCN)NC(C)=O)[C@@H](C)O)[C@@H](C)O)C(C)C)[C@@H](C)O)C(=O)N[C@@H](CO)C(=O)N[C@@H](CO)C(N)=O | circular dichroism at 222 nm | KCl phosphate buffer | 75 µM, pH 7.4, 65 °C | – | mean residue ellipticity | -4050 deg cm² dmol⁻¹
[Met(O)35]Aβ42 | electron microscopy | sodium phosphate buffer | 10 µM, pH 7.4, 25 °C, agitation 200 rpm | – | time to fibril formation | 48 h
CN[C@@](C)(C[18F])C(=O)O | – | SCID mice (MDA-MB-468 xenograft) | 30 min after injection | – | tumour uptake | 3.9 ± 0.5 %ID/g
COc1cc(-c2nc(-c3ccccc3)c(-c3cccs3)[nH]2)cc(OC)c1OP(=O)(O)O | – | C57BL/6 mouse, CES1 knockout, liver homogenate | 10 µM, 1 h, 37 °C | – | remaining compound | > 50%
CC[C@H](C)[C@H](NC(=O)[C@@H](N)CCCNC(=N)N)C(=O)N[C@H](C(=O)N1CCC[C@H]1C(=O)N[C@@H](C)C(N)=O)C(C)C | – | healthy volunteers, both sexes, plasma | intravenous infusion, 0.5 mg/kg daily, day 7, multiple ascending dose | – | Tmax | 4 min
CCCCCCCCCCCCCCCCCC[N+](C)(C)CCCCCCCCCCCCCCCCCC | in vitro-in vivo extrapolation | human | – | – | hepatic clearance | 0.159 mL/h/g liver
CC(C)c1nc(CN(C)C(=O)N[C@H](C(=O)N[C@@H](Cc2ccccc2)C[C@H](O)[C@H](Cc2ccccc2)NC(=O)OCc2cncs2)C(C)C)cs1 | – | healthy human volunteers, plasma | oral, dose not given, together with: rosuvastatin plus 2D regimen | – | AUC(0-24) | 6780 ng·h/mL
Nc1ccncc1[18F] | – | isoflurane-anaesthetised mice, brain | intravenous, 35 min | – | SUV | 1.14 ± 0.14
CCCCCCCCCC(=O)N[C@@H](Cc1c[nH]c2ccccc12)C(=O)N[C@H](CC(N)=O)C(=O)N[C@@H](CC(=O)O)C(=O)N[C@@H]1C(=O)NCC(=O)N[C@@H](CCCN)C(=O)N[C@@H](CC(=O)O)C(=O)N[C@H](C)C(=O)N[C@@H](CC(=O)O)C(=O)NCC(=O)N[C@H](CO)C(=O)N[C@@H]([C@H](C)CC(=O)O)C(=O)N[C@@H](CC(=O)c2ccccc2N)C(=O)O[C@@H]1C | HPLC | rat, skin tissue | subcutaneous, 50 mg/kg, 12 h, single dose, detection limit 0.075 µg/mL | – | skin tissue concentration | not detected
CC[C@H](C)[C@H](N)C(=O)N[C@@H](CC(C)C)C(=O)N1CCC[C@H]1C(=O)N[C@@H](Cc1c[nH]c2ccccc12)C(=O)N[C@@H](CCCCN)C(=O)N[C@@H](Cc1c[nH]c2ccccc12)C(=O)N1CCC[C@H]1C(=O)N[C@@H](Cc1c[nH]c2ccccc12)C(=O)N[C@@H](Cc1c[nH]c2ccccc12)C(=O)N1CCC[C@H]1C(=O)N[C@@H](Cc1c[nH]c2ccccc12)C(=O)N[C@@H](CCCN=C(N)N)C(=O)N[C@@H](CCCN=C(N)N)C(N)=O | – | sheep erythrocytes | 15 µM, 1 h, pH 7.4 | reference: water lysis | hemolysis | 4 ± 10%
CC(=O)N[C@H](CCCCNC(=O)C(C)F)C(=O)N[C@@H](CS)C(=O)N[C@@H](CS)C(=O)N[C@@H](CCC(=O)O)C(=O)N[C@@H](Cc1c[nH]cn1)C(=O)N[C@H](Cc1ccccc1)C(=O)N[C@@H](CCCNC(=N)N)C(=O)N[C@@H](Cc1c[nH]c2ccccc12)C(=O)N[C@@H](CS)C(=O)N[C@@H](CCCNC(=N)N)C(=O)N1CCC[C@H]1C(=O)N[C@H](C(N)=O)C(C)C (some centres unmarked) [fluorine-18 labelled] | – | C57BL/6 mice, male, B16-F10 tumour, muscle | intravenous, 2 h | – | tissue uptake | 0.17 ± 0.03 %ID/g
CCn1c2ccccc2c2cc(C(O)c3cccc4ncccc34)ccc21 (centres unmarked) | – | CD1 mice | intraperitoneal, 4 weeks, once daily 5 days/week | – | maximum tolerated dose | 20 mg/kg
O=c1oc2c(O)c(O)cc3c(=O)oc4c(O)c(O)cc1c4c23 | potentiometric titration | water, extrapolated from methanol/water | 25 °C | – | pKa2 | 7.04
CCCCCOc1ccc(-c2ccc(-c3ccc(C(=O)N[C@H]4C[C@@H](O)[C@@H](O)NC(=O)[C@@H]5[C@@H](O)[C@@H](C)CN5C(=O)[C@H]([C@@H](C)O)NC(=O)[C@H]([C@H](O)[C@@H](O)c5ccc(O)cc5)NC(=O)[C@@H]5C[C@@H](O)CN5C(=O)[C@H]([C@@H](C)O)NC4=O)cc3)cc2)cc1 | – | adult patients | iv, dose not given, 2, during treatment | – | patients with gastrointestinal adverse events | 18.2%
[123I]c1cncc(OC[C@@H]2CCN2)c1 | SPECT | human, thalamus | intravenous bolus, 9.3 mCi | reference: plasma | tissue/plasma ratio | 23.2
CC(C)C[C@H](NC(=O)[C@H](CCC(=O)O)NC(=O)[C@H](CCC(=O)O)NC(=O)[C@H](CC(=O)O)NC(=O)[C@H](CCC(=O)O)NC(=O)[C@H](CCC(=O)O)NC(=O)[C@H](CCC(=O)O)NC(=O)[C@@H](N)CC(=O)O)C(=O)O | – | rat, plasma | subcutaneous, 11.0 mg/kg single dose, 15 min | – | plasma concentration | 3400 ng/mL
NC(=O)c1nc(F)c[nH]c1=O | UV-Vis spectrophotometry | supercritical CO2 | 120 min, 328 K, 15 MPa, 654.94 kg/m^3 | – | solubility | 141 µg/mL (≈ 897 µM)
CC1(C)S[C@@H]2[C@H](NC(=O)[C@H](C(=O)O)c3ccsc3)C(=O)N2[C@H]1C(=O)O | – | rat plasma | 2400 ng/mL, -20 °C to room temperature, three freeze-thaw cycles | – | measured concentration | 2439 ± 10 ng/mL
CC[C@H](C)[C@@H]1NC(=O)[C@@H]2CSSC[C@H](NC(=O)CNC(=O)c3ccc(F)cc3)C(=O)N[C@@H](CCCNC(=N)N)C(=O)N[C@@H](CO)C(=O)N[C@@H](CC(C)C)C(=O)N[C@@H](C)C(=O)N[C@@H](CCCNC(=N)N)C(=O)N[C@@H]([C@@H](C)O)C(=O)N[C@@H](CC(=O)O)C(=O)N[C@@H](CC(C)C)C(=O)N[C@@H](CC(=O)O)C(=O)N[C@@H](Cc3c[nH]cn3)C(=O)N[C@@H](CC(C)C)C(=O)N[C@@H](CCCNC(=N)N)C(=O)NCC(=O)N[C@@H](CCCNC(=N)N)C(=O)N[C@H]3CSSC[C@H](NC1=O)C(=O)N[C@@H](CC(C)C)C(=O)N[C@@H](CCC(=O)O)C(=O)N[C@@H](CC(N)=O)C(=O)NCC(=O)N[C@@H](Cc1ccccc1)C(=O)N[C@H](C(=O)NCC(=O)O)CSSC[C@H](NC(=O)[C@H](CC(=O)O)NC(=O)[C@H](CO)NC(=O)[C@H](CC(=O)O)NC(=O)[C@H](CO)NC(=O)[C@H](CO)NC3=O)C(=O)N[C@@H](CC(C)C)C(=O)N[C@@H](C)C(=O)N[C@@H](CCC(=O)O)C(=O)N2 [fluorine-18 labelled] | γ-counting | mouse, pancreas | – | – | tissue uptake | 0.03 ± 0.01 %ID/g
CSCC[C@@H]1NC(=O)[C@H](CC(=O)O)NC(=O)CNC(=O)[C@H](CCCNC(=N)N)NC(=O)[C@H](C)NC(=O)[C@H](CCC(=O)O)NC(=O)[C@H](CCCNC(=N)N)NC(=O)[C@@H]2CSSC[C@@H]3NC(=O)[C@H](CO)NC(=O)[C@H]([C@@H](C)O)NC(=O)[C@@H]4CCCN4C(=O)[C@H](C)NC(=O)[C@H](Cc4c[nH]c5ccccc45)NC(=O)[C@H](CC(=O)O)NC(=O)CNC(=O)[C@H](CCCNC(=N)N)NC(=O)CNC(=O)[C@H](CCC(N)=O)NC(=O)[C@@H]4CCCN4C(=O)[C@@H](NC(=O)CNC(=O)C(C)F)CSSC[C@H](NC(=O)CNC(=O)[C@H](C)NC(=O)[C@H](CC(C)C)NC(=O)[C@H](CSSC[C@@H](C(=O)NCC(N)=O)NC(=O)[C@H]([C@@H](C)O)NC(=O)[C@H](CCCNC(=N)N)NC(=O)[C@@H]4CCCN4C1=O)NC(=O)[C@H](CC(=O)O)NC(=O)[C@H](CO)NC(=O)[C@H](CC(=O)O)NC(=O)[C@H](CCC(N)=O)NC(=O)[C@H](CO)NC3=O)C(=O)N[C@@H](C(C)C)C(=O)N2 (some centres unmarked) [fluorine-18 labelled] | – | nude mice, U-87 MG xenograft, heart | intravenous, 2.5 h, together with: cyclo(RGDyK) 330 µg coinjected | – | tissue uptake | 0.21 ± 0.02 %ID/g
CC[C@H](C)CCCCC(=O)N[C@@H](CCN)C(=O)N[C@H](C(=O)N[C@@H](CCN)C(=O)N[C@H]1CCNC(=O)[C@H]([C@@H](C)O)NC(=O)[C@H](CCN)NC(=O)[C@H](CCN)NC(=O)[C@H](CC(C)C)NC(=O)[C@@H](Cc2ccccc2)NC(=O)[C@H](CCN)NC1=O)[C@@H](C)O | – | ND4 Swiss Webster mouse, female, serum | intravenous, 3 mg/kg, aqueous solution | – | clearance | 13.2 mL/min/kg
O=c1nc(NO)ccn1[C@@H]1O[C@H](CO)[C@@H](O)[C@H]1O | microdialysis | pregnant rat, blood, fetus, placenta, amniotic fluid | iv, 100 mg/kg of molnupiravir, together with: NBMPR 10 mg/kg | reference: molnupiravir alone | biotransformation and biodistribution | no effect
